Assay results pooled from the literature.
Lines come from different studies, so protocols differ.
CTSL: Procathepsin L (CTSL, Homo sapiens, UniProt P07711)
Sequence of UniProt P07711 (whole entry, looked up): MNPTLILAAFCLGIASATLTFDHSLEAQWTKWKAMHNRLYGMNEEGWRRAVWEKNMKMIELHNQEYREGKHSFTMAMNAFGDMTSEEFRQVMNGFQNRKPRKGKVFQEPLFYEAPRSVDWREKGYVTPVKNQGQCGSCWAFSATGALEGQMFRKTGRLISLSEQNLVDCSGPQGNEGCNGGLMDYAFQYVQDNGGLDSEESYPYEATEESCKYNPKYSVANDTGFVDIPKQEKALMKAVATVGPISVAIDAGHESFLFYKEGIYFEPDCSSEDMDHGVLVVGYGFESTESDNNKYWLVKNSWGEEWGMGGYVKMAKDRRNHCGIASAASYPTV
Sequence of UniProt P61075 (whole entry, looked up): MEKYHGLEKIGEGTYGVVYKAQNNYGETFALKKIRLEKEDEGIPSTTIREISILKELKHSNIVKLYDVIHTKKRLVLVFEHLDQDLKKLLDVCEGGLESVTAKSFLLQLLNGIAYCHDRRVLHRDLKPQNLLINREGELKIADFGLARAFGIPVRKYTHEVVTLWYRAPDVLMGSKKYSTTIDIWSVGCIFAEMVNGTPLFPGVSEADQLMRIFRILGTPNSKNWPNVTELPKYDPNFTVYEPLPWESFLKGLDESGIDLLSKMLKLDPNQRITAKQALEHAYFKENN
Sequence of UniProt P35462 (whole entry, looked up): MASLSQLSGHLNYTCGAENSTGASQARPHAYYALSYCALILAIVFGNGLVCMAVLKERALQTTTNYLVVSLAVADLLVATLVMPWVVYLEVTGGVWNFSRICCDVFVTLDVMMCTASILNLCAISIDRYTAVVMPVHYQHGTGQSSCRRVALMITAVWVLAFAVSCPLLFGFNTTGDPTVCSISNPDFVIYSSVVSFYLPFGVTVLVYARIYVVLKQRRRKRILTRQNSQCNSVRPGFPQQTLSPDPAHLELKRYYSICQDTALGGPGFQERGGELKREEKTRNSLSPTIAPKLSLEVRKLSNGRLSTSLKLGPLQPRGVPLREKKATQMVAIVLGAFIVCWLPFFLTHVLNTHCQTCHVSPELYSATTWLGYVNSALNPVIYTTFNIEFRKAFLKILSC
Sequence of UniProt Q14012 (whole entry, looked up): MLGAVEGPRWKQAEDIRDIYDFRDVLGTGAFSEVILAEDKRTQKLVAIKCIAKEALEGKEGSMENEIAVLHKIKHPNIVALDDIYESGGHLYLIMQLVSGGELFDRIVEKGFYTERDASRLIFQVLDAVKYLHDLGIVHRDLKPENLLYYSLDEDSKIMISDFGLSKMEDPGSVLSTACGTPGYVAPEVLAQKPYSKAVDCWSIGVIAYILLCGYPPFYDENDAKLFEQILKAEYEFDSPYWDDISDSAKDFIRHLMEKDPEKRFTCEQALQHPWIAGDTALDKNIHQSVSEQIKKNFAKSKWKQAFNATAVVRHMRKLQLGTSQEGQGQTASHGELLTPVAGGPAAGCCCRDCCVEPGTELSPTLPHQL
Sequence of UniProt Q969F8 (whole entry, unmodified, looked up): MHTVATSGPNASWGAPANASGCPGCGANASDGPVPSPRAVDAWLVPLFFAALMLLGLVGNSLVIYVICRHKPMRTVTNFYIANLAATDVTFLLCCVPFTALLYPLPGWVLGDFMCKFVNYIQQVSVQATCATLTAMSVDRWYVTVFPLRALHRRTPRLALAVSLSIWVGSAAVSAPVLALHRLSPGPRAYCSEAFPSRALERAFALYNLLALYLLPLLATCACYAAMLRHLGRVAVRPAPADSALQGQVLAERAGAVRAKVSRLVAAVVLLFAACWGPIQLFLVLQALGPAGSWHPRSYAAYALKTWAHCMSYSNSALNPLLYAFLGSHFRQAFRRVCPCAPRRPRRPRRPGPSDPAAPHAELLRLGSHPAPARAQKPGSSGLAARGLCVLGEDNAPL
Sequence of UniProt P30530 (whole entry, looked up): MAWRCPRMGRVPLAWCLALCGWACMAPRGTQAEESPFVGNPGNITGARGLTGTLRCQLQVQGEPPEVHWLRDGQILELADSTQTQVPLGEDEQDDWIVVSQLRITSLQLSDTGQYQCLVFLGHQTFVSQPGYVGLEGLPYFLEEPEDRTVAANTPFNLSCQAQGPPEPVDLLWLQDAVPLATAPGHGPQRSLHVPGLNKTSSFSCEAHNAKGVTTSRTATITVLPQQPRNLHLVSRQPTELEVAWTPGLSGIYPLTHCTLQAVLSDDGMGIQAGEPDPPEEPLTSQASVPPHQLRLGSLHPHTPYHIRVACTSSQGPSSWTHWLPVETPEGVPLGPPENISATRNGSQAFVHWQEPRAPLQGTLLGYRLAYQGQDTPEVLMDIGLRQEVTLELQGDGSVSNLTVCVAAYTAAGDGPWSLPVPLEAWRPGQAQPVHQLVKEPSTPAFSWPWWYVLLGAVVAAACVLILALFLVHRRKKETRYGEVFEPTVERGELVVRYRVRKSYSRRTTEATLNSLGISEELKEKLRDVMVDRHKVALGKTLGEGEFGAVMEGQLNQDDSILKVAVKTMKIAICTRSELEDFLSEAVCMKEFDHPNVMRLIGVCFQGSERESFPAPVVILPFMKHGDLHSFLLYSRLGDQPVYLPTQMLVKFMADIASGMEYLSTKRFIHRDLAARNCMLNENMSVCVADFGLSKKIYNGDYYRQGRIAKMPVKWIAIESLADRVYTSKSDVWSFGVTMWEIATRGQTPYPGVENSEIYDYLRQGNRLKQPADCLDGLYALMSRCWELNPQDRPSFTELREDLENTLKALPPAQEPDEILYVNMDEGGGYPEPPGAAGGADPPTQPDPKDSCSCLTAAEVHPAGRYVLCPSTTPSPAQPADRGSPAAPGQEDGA
Sequence of UniProt P49674 (whole entry, looked up): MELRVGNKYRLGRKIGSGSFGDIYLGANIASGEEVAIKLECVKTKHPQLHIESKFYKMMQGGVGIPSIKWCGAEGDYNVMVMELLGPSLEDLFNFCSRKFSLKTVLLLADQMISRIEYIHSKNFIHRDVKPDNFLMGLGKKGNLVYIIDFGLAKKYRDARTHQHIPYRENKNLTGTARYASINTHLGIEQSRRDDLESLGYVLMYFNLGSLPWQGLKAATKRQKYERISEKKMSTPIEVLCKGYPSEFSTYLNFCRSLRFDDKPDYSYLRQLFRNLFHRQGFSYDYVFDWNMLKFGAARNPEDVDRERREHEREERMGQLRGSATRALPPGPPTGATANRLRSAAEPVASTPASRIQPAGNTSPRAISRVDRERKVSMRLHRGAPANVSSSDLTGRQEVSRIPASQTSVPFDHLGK
Sequence of UniProt Q8NI60 (whole entry, looked up): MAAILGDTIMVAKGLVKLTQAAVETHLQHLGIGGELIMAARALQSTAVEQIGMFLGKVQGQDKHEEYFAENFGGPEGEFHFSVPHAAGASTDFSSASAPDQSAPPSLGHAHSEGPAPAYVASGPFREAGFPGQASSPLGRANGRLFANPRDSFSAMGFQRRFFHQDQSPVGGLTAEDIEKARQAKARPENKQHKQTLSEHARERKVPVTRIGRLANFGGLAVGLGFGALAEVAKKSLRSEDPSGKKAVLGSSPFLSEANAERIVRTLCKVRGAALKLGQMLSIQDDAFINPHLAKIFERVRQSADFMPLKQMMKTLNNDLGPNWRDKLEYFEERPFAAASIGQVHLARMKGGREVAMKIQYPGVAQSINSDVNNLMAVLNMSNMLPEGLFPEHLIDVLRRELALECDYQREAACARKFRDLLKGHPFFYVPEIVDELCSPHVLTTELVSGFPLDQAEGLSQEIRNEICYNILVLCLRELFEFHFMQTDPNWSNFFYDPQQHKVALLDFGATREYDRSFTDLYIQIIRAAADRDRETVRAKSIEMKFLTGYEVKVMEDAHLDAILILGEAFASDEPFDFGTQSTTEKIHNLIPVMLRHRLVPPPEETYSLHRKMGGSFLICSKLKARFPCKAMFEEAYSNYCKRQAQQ
Sequence of UniProt P05164 (whole entry, looked up): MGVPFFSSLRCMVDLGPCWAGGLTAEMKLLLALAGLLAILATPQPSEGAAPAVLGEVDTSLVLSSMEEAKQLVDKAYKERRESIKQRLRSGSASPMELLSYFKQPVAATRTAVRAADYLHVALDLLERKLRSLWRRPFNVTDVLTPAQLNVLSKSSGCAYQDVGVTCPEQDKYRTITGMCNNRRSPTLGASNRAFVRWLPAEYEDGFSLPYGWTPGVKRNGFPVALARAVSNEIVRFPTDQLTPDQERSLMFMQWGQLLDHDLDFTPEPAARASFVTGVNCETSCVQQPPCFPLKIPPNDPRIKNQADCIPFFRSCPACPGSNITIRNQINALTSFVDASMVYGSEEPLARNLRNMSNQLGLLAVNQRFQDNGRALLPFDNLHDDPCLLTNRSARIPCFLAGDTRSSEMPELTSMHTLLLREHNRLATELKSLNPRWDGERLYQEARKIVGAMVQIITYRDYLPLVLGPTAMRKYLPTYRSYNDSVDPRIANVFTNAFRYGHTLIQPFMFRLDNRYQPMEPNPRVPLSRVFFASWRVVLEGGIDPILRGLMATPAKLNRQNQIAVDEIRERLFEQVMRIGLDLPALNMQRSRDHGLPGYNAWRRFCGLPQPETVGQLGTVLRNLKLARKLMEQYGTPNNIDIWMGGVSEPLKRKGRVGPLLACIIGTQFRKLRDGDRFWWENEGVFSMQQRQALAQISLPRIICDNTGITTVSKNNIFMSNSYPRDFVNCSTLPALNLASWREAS

With `O=C(O)CC(O)(CC(=O)OCc1ccc(OC2OC(CO)C(O)C(O)C2O)cc1)C(=O)OCc1ccc(OC2OC(CO)C(O)C(O)C2O)cc1` (centres unmarked) the remaining activity was 85.6% (CTSL; enzyme activity, inhibitor; 100 µM).
The ΔTm of `CC(=O)c1cc(-c2ccccc2)c2ccccn12` is reported as 5.5 °C (BRD9 (Homo sapiens, UniProt Q9H8M2); thermal stability, DSF; 200 µM).
With `CNc1ncc2c(/C=C/C(=O)N3CCC(OC)CC3)nn(Cc3cccc(C(F)(F)F)c3)c2n1` the remaining activity was 103% (AXL (Homo sapiens, UniProt P30530); enzyme activity, inhibitor, radiometric; 1 µM).
With `Nc1ncnc2occ(-c3ccc(NC(=O)Nc4cc(C(F)(F)F)ccc4F)cc3)c12` the remaining signal was 78% (BUB1 (Homo sapiens, UniProt O43683); cell-free assay, inhibitor; 20 µM).
With `O=CCCc1ccccc1` the remaining activity was 114% (CTSL; enzyme activity, inhibitor; 100 µM).
The remaining signal of `C[C@H]1CCN(c2nccc(-c3cnn4ncccc34)n2)C1` is reported as 69% (CRK2 (Plasmodium falciparum, UniProt P61075); cell-free assay; 1 µM).
For `CC(=O)NC(C=O)C(O)C(O)C(O)CO` (centres unmarked), the remaining activity was 60.1% (CTSL; enzyme activity, inhibitor; 100 µM).
`Cc1[nH]c(C)c(S(=O)(=O)Nc2ccc(C(F)(F)F)c3ncccc23)c1C(=O)N1CCC(F)(F)C1` has an Emax of 87% (DRD3 (Homo sapiens, UniProt P35462); β-arrestin recruitment, agonist; 90 min).
`CC[C@H](C)[C@H](NC(=O)[C@H](CCC(N)=O)NC(=O)[C@H](CCCNC(=N)N)NC(=O)[C@H](CO)NC(=O)[C@H](Cc1c[nH]cn1)NC(=O)[C@@H]1CCCN1C(=O)[C@H](C)NC(=O)[C@H](CO)NC(=O)[C@H](CC(C)C)NC(=O)CNC(=O)[C@@H]1CCCN1C(=O)[C@H](CCC(N)=O)NC(=O)[C@H](CCC(N)=O)NC(=O)[C@H](CCCNC(=N)N)NC(=O)[C@H](CO)NC(=O)CNC(=O)[C@H](CO)NC(=O)[C@H](CO)NC(=O)[C@H](CCC(=O)O)NC(=O)[C@@H]1CCCN1C(=O)[C@@H]1CCCN1C(=O)[C@@H]1CCCN1C(=O)[C@H](CO)NC(=O)[C@H](CC(C)C)NC(=O)[C@H](CO)NC(=O)[C@@H](NC(=O)CN)[C@@H](C)O)C(=O)N1CCC[C@H]1C(=O)N[C@@H](C)C(=O)N1CCC[C@H]1C(=O)N[C@@H](CCC(N)=O)C(=O)NCC(=O)N[C@@H](C)C(=O)N[C@H](C(=O)N[C@@H](CC(C)C)C(=O)N[C@H](C(=O)N[C@@H](CCC(N)=O)C(=O)N[C@@H](CCCNC(=N)N)C(=O)N[C@@H](CCC(=O)O)C(=O)N[C@@H](CCCCN)C(=O)N[C@@H](CC(=O)O)C(=O)N[C@@H](CC(C)C)C(=O)N1CCC[C@H]1C(=O)N[C@@H](CC(N)=O)C(=O)N[C@@H](Cc1ccc(O)cc1)C(=O)N[C@@H](CC(N)=O)C(=O)N[C@@H](Cc1c[nH]c2ccccc12)C(=O)N[C@@H](CC(N)=O)C(=O)N[C@@H](CO)C(=O)N[C@@H](Cc1ccccc1)C(=O)NCC(=O)N[C@@H](CC(C)C)C(=O)N[C@@H](CCCNC(=N)N)C(=O)N[C@@H](Cc1ccccc1)C(N)=O)C(C)C)C(C)C` has an Emax of 53.9% (KiSS-1 receptor (KISS1R, Homo sapiens, UniProt Q969F8, T99A); inositol phosphate, agonist; HEK293).
`CCCCC(=O)Nc1ccc(-c2ccc3ncn(CCC)c(=O)c3c2)cn1` gave a remaining binding of 100% (RIOK2 (Homo sapiens, UniProt Q9BVS4); binding, competition with immobilised ligand; 0.5 µM).
`Cc1cc([C@@H](C)Nc2ccccc2C(=O)O)c2nc(N3CCC(F)(F)CC3)c(C#N)c(=O)n2c1` gave a remaining binding of 100% (COQ8A (Homo sapiens, UniProt Q8NI60); binding, competition with immobilised ligand; 10 µM).
`Cc1cc(O)c2c(=O)c3c(O)cc(O)c4c5c(O)cc(O)c6c(=O)c7c(O)cc(C)c8c1c2c(c34)c(c78)c65` has a remaining activity of 32.5% (CTSL; enzyme activity, inhibitor; 100 µM).
For `C1=C/COCc2cc(ccc2OCCN2CCCC2)Nc2nccc(n2)-c2cccc(c2)COC/1`, the remaining binding was 100% (EPHB4 (Homo sapiens, UniProt P54760); binding; 0.1 µM).
With `CCCCCCCCCCCCCCCCCCCC(=O)O` the inhibition was 23% (USP51 (Homo sapiens, UniProt Q70EK9); enzyme activity, inhibitor; 5 µM).
For `NC/C(=C\F)COc1cccc(Cn2c(=S)[nH]c(=O)c3[nH]cnc32)c1`, the inhibition was 98.6% (Myeloperoxidase (MPO, Homo sapiens, UniProt P05164); enzyme activity, inhibitor, fluorescence; 1.667 µM).
The remaining binding of `C=CC(=O)N1CCC(COCC(=O)N2CCN(c3nc(-c4cnc(N)nc4C(F)F)nc(N4CCOC[C@@H]4C)n3)CC2)CC1` is reported as 90% (CSNK1E (Homo sapiens, UniProt P49674); binding, competition with immobilised ligand; 1 µM).
`COc1cc(-c2cncc3c2CN(C)Cc2cc(N4CCNCC4)ccc2-3)cc(OC)c1OC` gave a remaining activity of 113% (CAMK1 (Homo sapiens, UniProt Q14012); enzyme activity, inhibitor; 1 µM).

Excerpt of the above:
With `Nc1ncnc2occ(-c3ccc(NC(=O)Nc4cc(C(F)(F)F)ccc4F)cc3)c12` the remaining signal was 78% (BUB1 (Homo sapiens, UniProt O43683); cell-free assay, inhibitor; 20 µM).
With `O=CCCc1ccccc1` the remaining activity was 114% (CTSL; enzyme activity, inhibitor; 100 µM).
